Measured values of several laboratories.
Each numbered part is a random draw from the data of one study; scales do not carry over between parts. Changes are numbered by the printed parent chain.
Sequence of UniProt O15294 (whole entry, looked up): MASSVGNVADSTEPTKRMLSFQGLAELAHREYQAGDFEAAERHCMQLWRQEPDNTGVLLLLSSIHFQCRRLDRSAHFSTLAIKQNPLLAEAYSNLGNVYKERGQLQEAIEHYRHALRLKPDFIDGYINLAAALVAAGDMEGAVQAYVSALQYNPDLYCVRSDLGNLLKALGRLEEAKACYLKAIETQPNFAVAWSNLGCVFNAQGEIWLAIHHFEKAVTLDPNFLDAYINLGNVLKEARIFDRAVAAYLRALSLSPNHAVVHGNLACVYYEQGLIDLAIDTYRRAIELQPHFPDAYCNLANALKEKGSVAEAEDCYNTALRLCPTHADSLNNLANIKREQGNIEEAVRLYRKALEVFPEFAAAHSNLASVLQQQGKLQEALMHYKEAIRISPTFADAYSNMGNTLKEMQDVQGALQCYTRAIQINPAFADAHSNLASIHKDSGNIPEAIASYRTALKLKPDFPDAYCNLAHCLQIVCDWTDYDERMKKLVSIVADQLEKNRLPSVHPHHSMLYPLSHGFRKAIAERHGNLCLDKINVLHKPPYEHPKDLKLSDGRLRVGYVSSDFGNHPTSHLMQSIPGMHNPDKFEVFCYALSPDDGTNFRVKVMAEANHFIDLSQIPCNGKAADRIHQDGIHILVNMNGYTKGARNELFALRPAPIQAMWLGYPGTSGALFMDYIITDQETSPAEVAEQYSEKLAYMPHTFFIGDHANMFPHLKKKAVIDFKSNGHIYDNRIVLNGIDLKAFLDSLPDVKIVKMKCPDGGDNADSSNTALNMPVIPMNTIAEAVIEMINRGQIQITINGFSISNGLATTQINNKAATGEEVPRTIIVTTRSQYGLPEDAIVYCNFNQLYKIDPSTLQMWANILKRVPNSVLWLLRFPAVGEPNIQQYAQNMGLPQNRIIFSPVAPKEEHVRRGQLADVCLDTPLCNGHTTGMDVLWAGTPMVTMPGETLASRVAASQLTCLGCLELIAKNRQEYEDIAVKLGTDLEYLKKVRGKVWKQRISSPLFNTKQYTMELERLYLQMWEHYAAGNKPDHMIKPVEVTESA

Series 1
Target: NFE2, bZIP domain (human)
Method: DHFR protein complementation
Sample: yeast
Setting: single substitutions, most at no-binding floor
Relative to: wild-type JUN-FOS pair
Reading: higher = stronger binding
Starting sequence: JUN, bZIP domain (human); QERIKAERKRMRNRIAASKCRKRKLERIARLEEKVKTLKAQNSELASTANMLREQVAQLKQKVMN; partner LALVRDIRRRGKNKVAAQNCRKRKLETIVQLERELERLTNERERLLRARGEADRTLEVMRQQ
Variant | binding fitness [natural log]
M51S | -1.36
E44W | -1.39
K36L | -1.51
E32P | -1.45
A40S | -1.37
S43V | -1.48
T48A | -1.29
L45A | -1.51

Series 2
Target: Prothrombin, mature alpha-thrombin (F2, Homo sapiens, UniProt P00734)
Method: aptamer microarray, sandwich
Form: DNA with 2'F-ANA
Sample: in vitro
Concentration: 200 nM
Setting: whole 15-mer aptamer, many near background
Together with: Cy3 exosite-II aptamer, 400 nM
Reading: higher = stronger binding
Oligonucleotide: GGTTGGTGTGGTTGG
Modification | mean fluorescence intensity [a.u.]
2'F-ANA at 3 4 5 8 11 15 | 88.9
2'F-ANA at 1 2 4 6 13 14 | 113
2'F-ANA at 1 4 5 7 10 11 13 | 47.7
2'F-ANA at 1 2 7 9 | 187
2'F-ANA at 1 3 4 5 6 7 8 15 | 68
2'F-ANA at 1 4 5 6 7 8 9 10 11 12 15 | 57
2'F-ANA at 3 4 5 6 7 9 10 12 13 | 51.4
2'F-ANA at 1 3 5 12 | 146

Single results of other studies
Molecule | tested on | assay | test system | setting | scale | measurement | value
TXLNA (Homo sapiens, UniProt P40222) | C1orf122 (Homo sapiens, UniProt Q6ZSJ8) | cross-linking MS | cell fractions | together with: DSSO |  | cross-linked residues | K364 to K21
HYTMEHNWAHQEQHH | OGT (Homo sapiens, UniProt O15294) | binding, phage display NGS | peptide | concentration not given | relative to: input library | enrichment fold change | 6.17
PES1 (Homo sapiens, UniProt O00541) | BOP1 (Homo sapiens, UniProt Q14137) | cross-linking MS | cell fractions | together with: DSSO |  | cross-linked residues | K564 to K339
PGRMC1 (Homo sapiens, UniProt O00264) | DHCR24 (Homo sapiens, UniProt Q15392) | cross-linking MS |  | hits only |  | interaction screen | cross-linked
PSMC2 (Homo sapiens, UniProt P35998) | PSMC4 (Homo sapiens, UniProt P43686) | cross-linking MS |  | hits only |  | interaction screen | cross-linked

Repeated from above (series 1):
Variant | binding fitness [natural log]
A40S | -1.37
T48A | -1.29
